Experimental data pooled from the literature.
A part holds a random share of what one study measured.

Sample 1
Target: Histone acetyltransferase KAT6A, winged helix 1, GST fusion (KAT6A, Homo sapiens, UniProt Q92794, residues 1-85)
Technique: protein binding microarray
Form: double-stranded DNA, one strand shown
Sample: in vitro
Tested at: not given
Setting: 8-mer, flanks averaged, mean of 2 arrays, mostly near background
Relative to: not given
Reading: higher = stronger binding
Construct (chain): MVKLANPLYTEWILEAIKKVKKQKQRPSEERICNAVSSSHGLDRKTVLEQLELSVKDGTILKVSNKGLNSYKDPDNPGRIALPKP
Oligonucleotide | E-score
CATAGCAG | -0.175
CCCACACG | 0.0665
ATTTTGCC | -0.0384
ATGTAGGG | -0.0664
CACCGCAC | 0.177
CAGAGCCC | -0.116
GACCAATA | 0.0692
CGATATGA | 0.0371

Sample 2
Target: Replicase polyprotein 1ab, polymerase (rep, Severe acute respiratory syndrome coronavirus 2, UniProt P0DTD1)
Observed: enzyme activity
Action: inhibitor
Tested at: 20 µM
Compound | inhibition
FC(F)(F)c1ccccc1-c1cc(C(F)(F)F)c2nc(C3=NOC4(CCCCC4)C3)[nH]c2c1 | 0.22%
CO[C@]12C[C@@H](COC(=O)c3cncc(Br)c3)CN(C)[C@@H]1Cc1cn(C)c3cccc2c13 | 29.4%
c1nc2c(NC3CCCCC3)nc(Nc3ccc(N4CCOCC4)cc3)nc2[nH]1 | 1.87%
Cc1cnc(C(=O)O)c[n+]1[O-] | -3.15%
C[C@@]12N[C@@H](Cc3ccccc31)c1ccccc12 | 0.98%
O=C(Nc1c(-c2cccs2)nc2ccccn12)c1ccc(Cl)cc1 | 1.21%
COc1ccccc1C1(O)CCN(CCCn2c3ccccc3c3ccccc32)CC1 | 13.2%
Cn1nnc(-c2ccc(-c3ccc(N4C[C@H](CO)OC4=O)cc3F)cn2)n1 | 1.85%
Cc1cc2nc3c(=O)[nH]c(=O)nc-3n(C)c2cc1C=O | 24%
N[C@@H](Cc1ccc(B(O)O)cc1)C(=O)O | 1.46%
CN1CCN(c2c(F)cc3c(=O)c(C(=O)O)cn4c3c2SCC4)CC1 | -4.38%
N#Cc1ccc(C(c2ccc(C#N)cc2)n2cncn2)cc1 | -2.66%
CCC(C)(Oc1ccc(C2(c3ccc(OC(C)(CC)C(=O)O)cc3)CCCCC2)cc1)C(=O)O (stereo not drawn) | -7.01%
COc1cc2nccc(Oc3ccc(NC(=O)NC4CC4)c(Cl)c3)c2cc1C(N)=O | -6.02%
Nc1ccc(S(=O)(=O)Nc2ncccn2)cc1 | 5.7%
COc1ccc(Nc2nccc(NCCO)n2)cc1 | 9.46%
OCCNCCCOc1cccc(Cl)c1Cl | 25.6%
CCOC(=O)c1ncn2c1CN(C)C(=O)c1cc(F)ccc1-2 | -3.03%
CCCCN(CC)c1c([N+](=O)[O-])cc(C(F)(F)F)cc1[N+](=O)[O-] | -8.32%
NP(N)(=O)NC(=O)c1ccc(F)cc1 | -7.29%
CS(=O)(=O)c1ccc([C@@H](O)[C@@H](CO)NC(=O)C(Cl)Cl)cc1 | -1.7%

Sample 3
Target: Interferon regulatory factor 5, full length, phosphomimetic (IRF5, Homo sapiens, UniProt Q13568-2, residues 1-514, K96S/S451D/S453D/S456D/S462D)
Technique: protein-binding microarray
Form: double-stranded DNA, one strand shown
Sample: in vitro
Tested at: 250 nM
Setting: 60-bp whole probe
Added: salmon DNA 0.4 mg/ml
Relative to: random background probes
Reading: higher = stronger binding
All sequences stand within: GCCTAGCAC … GTCTTGATTCGCTTGACGCTGCTG
Oligonucleotide | log fluorescence [z-score]
GACTTTTTAGATTTTTTTTCGTGCTAG | 1.13
CAAGTTTTTATTTTCTGAATGTGCTAG | 1.76
CCCCTACTGTATTTGGCCAGGTGCTAG | -0.279
CCAGACTGCAGAGCAAGATCGTGCTAG | -0.455
TTAGAACTGAGTTGCGATTAGTGCTAG | 0.791
TTAGATTTCGGGTATCGATTGGTGCTA | 7.21
GACGGCCTGGGTTTCGGGACGTGCTAG | 2.31
GTAGAACTGGGGACTGGATTAGTGCTA | -0.604

Sample 4
Target: Replicase polyprotein 1ab, main protease (rep, Severe acute respiratory syndrome coronavirus 2, UniProt P0DTD1)
Observed: enzyme activity
Action: inhibitor
Tested at: 20 µM
Setting: primary screen
Structure (SMILES) | inhibition [%]
Cc1ccsc1C(=CCCN1CCC[C@@H](C(=O)O)C1)c1sccc1C | 35.1
NCC1(CC(=O)O)CCCCC1 | 76.6
C[C@@H]1O[C@@H](O[C@@H]2[C@@H](O)[C@H](OCCc3ccc(O)c(O)c3)O[C@H](CO)[C@H]2OC(=O)/C=C/c2ccc(O)c(O)c2)[C@H](O)[C@H](O)[C@H]1O | 94.2
O=C(Nc1cc(C(F)(F)F)ccc1O)Nc1cc(C(F)(F)F)ccc1O | 29
S=c1[nH]nc(-c2ccccc2)o1 | 63.5

A few entries again (sample 2):
Compound | inhibition
FC(F)(F)c1ccccc1-c1cc(C(F)(F)F)c2nc(C3=NOC4(CCCCC4)C3)[nH]c2c1 | 0.22%
CO[C@]12C[C@@H](COC(=O)c3cncc(Br)c3)CN(C)[C@@H]1Cc1cn(C)c3cccc2c13 | 29.4%
c1nc2c(NC3CCCCC3)nc(Nc3ccc(N4CCOCC4)cc3)nc2[nH]1 | 1.87%
